Measured values gathered from unrelated publications.
Lines come from different studies, so protocols differ. ± marks the error that the study gave.

SMILES | test | test system | setting | scale | measurement | value
O=C(Nc1nc2cccc(-c3ccc(CN4CCS(=O)(=O)CC4)cc3)n2n1)C1CC1 | refers to: gastrointestinal pain | human rheumatoid arthritis patients | oral, 30 mg once daily, 4 weeks, regardless of relatedness |  | treatment-emergent adverse events | 0%
CNCc1ccc(-c2[nH]c3cc(F)cc4c3c2CCNC4=O)cc1 |  | human patients | oral, dose not given, all grades, all doses |  | incidence of neutropenia | 17.9%
c1ncc(-c2ccc(C3CCCCC3)cc2)cn1 | hepatocyte stability | cryopreserved mouse hepatocytes | 1 µM |  | hepatic clearance | 66 mL/min/kg
C[C@@H](N)C1CCN(S(=O)(=O)c2cccc3cnccc23)CC1 |  | healthy volunteers | 25 mg, fasted |  | participants with headache | 16.7%
O=C(CC1CCOCC1)Nc1ccc(C2CCCCC2)cc1 |  | cynomolgus liver microsomes | 1 µM |  | hepatic clearance | 36 mL/min/kg
CCN1CCN(Cc2ccc(NC(=O)c3ccc(C)c(NC(=O)c4cncc(-c5cccs5)c4)c3)cc2C(F)(F)F)CC1 | LC-MS/MS | C57BL/6 mouse, plasma | intraperitoneal, 30 mg/kg single dose, 2 h |  | mean plasma concentration | 496 ng/mL
Cc1c(C(=O)O)ccc2c3n(nc12)[C@@H]1[C@H](C3)N(CC2CC2)[C@@]2(C(=O)Nc3cc(Cl)ccc32)[C@H]1c1cccc(Cl)c1F | equilibrium dialysis | Crl:CD1(ICR) mouse, both sexes, plasma | pH 7.4 |  | unbound fraction | 0.0034
O=C([O-])CN1CCN(CC(=O)[O-])CCN([C@H](CO)[C@H](O)CO)CCN(CC(=O)[O-])CC1.[Gd+3] (racemic) | ICP-MS | rat, femur diaphysis | intravenous, 0.6 mmol Gd/kg, 1 week |  | Gd concentration | 1 nmol/g
C=CCn1c(=O)c2cnc(Nc3ccc(N4CCN(C)CC4)cc3)nc2n1-c1cccc(C(C)(C)O)n1 |  | human patients | oral, 175 mg twice daily, monotherapy, -5 day lead-in |  | AUC(0-10 h) | 7.64 µM·h
C[C@@H]1CN(CC(=O)N2CC(C)(C)c3nc(CO)c(Cc4ccc(F)cc4)cc32)[C@@H](CN2CCOC[C@H]2C)CN1 |  | cynomolgus liver microsomes | 1 µM |  | intrinsic clearance | 180 ± 13 µL/min/mg
CC(C)C[C@@H]1NC(=O)[C@H](C)N(C)C(=O)[C@H](Cc2ccccc2)NCc2cc(c[nH]2)CNC1=O | PAMPA | lecithin in dodecane | 100 µM, 17 h, pH 6.4, 37 °C |  | -log Pe | 7.53
CC(C)(C)n1ncc(OCc2ccc(COCCF)cc2)c(Cl)c1=O [fluorine-18 labelled] |  | human, myocardium | 370 MBq |  | absorbed dose | 18.5 to 22.2 mGy
CN[C@H](CC(C)C)C(=O)N[C@H]1C(=O)N[C@@H](CC(N)=O)C(=O)N[C@H]2C(=O)N[C@H]3C(=O)N[C@H](C(=O)N[C@H](C(=O)O)c4cc(O)cc(O)c4-c4cc3ccc4O)[C@H](O)c3ccc(c(Cl)c3)Oc3cc2cc(c3O[C@@H]2O[C@H](CO)[C@@H](O)[C@H](O)[C@H]2O[C@H]2C[C@](C)(N)[C@H](O)[C@H](C)O2)Oc2ccc(cc2Cl)[C@H]1O |  | poloxamer 407 hydrogel | pH 7.4, 37 °C, co-formulated with antibiotics |  | release half-life | 3 h
CN(C(=O)n1cnc(-c2ccc[n+]([O-])c2)c1)[C@H]1CC[C@H](O)CC1 |  | rat, cortex | oral, 10 mg/kg single dose, 4 h |  | tissue concentration | 9.2 ± 0.5 ng/g
C=CC(=O)N1CCC(c2ccc(C(N)=O)c(-c3ccc(Oc4ccccc4)cc3)n2)CC1 | CTCAE 4.03 | patients with relapsed/refractory MCL | oral, 150 mg once daily |  | incidence of grade ≥3 TEAEs | 12.5%
Cl.[2H]C([2H])([2H])CC(=O)c1cnc(NC(=O)C2CC2)cc1Nc1cccc(-c2ncn(C([2H])([2H])[2H])n2)c1OC |  | human, fasted, multiple dose | oral, 20 mg once daily, tablet, day 14, geometric mean |  | CL/F | 18.2 L/h
CC(C)Cn1cnc2c(N)nc3ccccc3c21 |  | C57BL/6J CYP1A-knockout female mice, corn oil-treated, liver microsomes | 1 µM, 45 min | relative to: control | remaining compound | 56%
C=C(NC(=O)c1nccc(OC)c1O)C(=O)O[C@@H](C)[C@H](OC(=O)C(C)C)[C@@H](Cc1ccccc1)C(=O)O | soil adsorption | clay loam soil | pH 6.8, organic carbon 0.5 % |  | KFoc | 19700 mL/g
Cc1nc2ccc(F)cc2n1-c1nc(N)c(F)c(Nc2ccc(C(F)(F)F)cc2)n1 |  | leiomyosarcoma patients | 200 mg twice weekly, with: dacarbazine 1000 mg/m^2 | relative to: subjects | myelosuppression-related DLT | 25%
Cc1ccc(O)c(-n2nc3ccccc3n2)c1 | exposure assessment | human, age 3-6 years, sunscreen |  |  | dermal uptake | 1090 ng/kg body weight/day
O=C(Nc1cnccc1Cl)N1CCN(Cc2ccc3c(c2)OC(F)(F)O3)CC1 | refers to: Somnolence | human healthy young men | 75 mg, multiple dose |  | adverse event incidence | 33.3%
Cc1cc(C)c(CNC(=O)c2cc(Cl)c3c(c2C)O[C@@](C)([C@H]2CC[C@H](N(C)C)CC2)O3)c(=O)[nH]1 |  | human relapsed/refractory NHL | oral, 200 mg once daily, onset day 1 to 14 |  | adenovirus infection grade ≥3 | 0%
Cc1ccc(CCC(=O)Nc2nnc(S(N)(=O)=O)s2)cc1 |  | BALB/c mouse, male, plasma | oral, 20 mg/kg, 2 h |  | unbound plasma concentration | 0.311 ng/mL

SMILES | test | test system | setting | scale | measurement | value
O=C(COc1ccc(Cl)cc1)NC12CC(c3nnc([C@H]4C[C@@H](OC(F)(F)F)C4)o3)(C1)C2 | refers to: Tachycardia | healthy humans, both sexes | oral, 400 mg, single ascending dose | relative to: subjects | treatment-emergent adverse events | 16.7%
OC[C@H]1O[C@@H](c2ccc(F)c(Cc3cc4ccccc4s3)c2)[C@H](O)[C@@H](O)[C@@H]1O |  | Japanese type 1 diabetes patients | oral, 50 mg/day, day 14 |  | hypoglycaemia adverse events | 6 % patients
CCn1ncc2c1-c1cnc(N)c(c1)O[C@H](C)c1cc(F)ccc1-c1nn(C)nc1C2 |  | female athymic nude mice, sample B PDX | oral, 0.2 mg/kg twice daily for 5.5 days, 1 h |  | unbound plasma concentration | 23 ± 0.3 nM
O=C(NCc1cc[nH]n1)c1ccc(C2CCCCC2)cc1 | liver microsome stability | cynomolgus liver microsomes | 1 µM |  | hepatic clearance | 34 mL/min/kg
Cc1ccc([C@@H]2O[C@H](CO)[C@@H](O)[C@H](O)[C@H]2O)cc1Cc1ccc(-c2ccc(F)cc2)s1 |  | Japanese type 2 diabetes patients | 200 mg, day 5, 24 h urine collection | relative to: baseline | urinary sodium excretion change | -1.23 mEq
C/C(=N\c1ccc(O)cc1)c1cc2ccccc2n1C |  | rat, plasma | 4 h, room temperature |  | bench-top stability | stable
O=C(Nc1ccc(Cl)cc1)Nc1ccc(Cl)c(Cl)c1 |  | whole cow milk | 20 nM nominal |  | dose fraction in skim milk | 10.1%
CN(Cc1cccnc1)C(=O)c1ccc(C2CCCCC2)cc1 | hepatocyte stability | cryopreserved rat hepatocytes | 1 µM |  | hepatic clearance | 48 mL/min/kg
Cn1cc(-c2cn3nccc3c(-c3cnn([C@]4(CC#N)C[C@@H](C#N)C4)c3)n2)cn1 |  | healthy humans fed, plasma | oral, 1200 mg once daily, day 10, geometric mean | relative to: day 10 over day 1 | observed accumulation ratio | 0.9
CN(C)CCC(=O)Nc1ccc([C@H]2[C@@H](F)[C@@H](F)C[C@@H](F)[C@H]2F)cc1 | hepatocyte stability | cryopreserved rat hepatocytes | 1 µM |  | hepatic clearance | 28 mL/min/kg
C=CC(=O)Nc1cc(Nc2nccc(-c3cn(C)c4ccccc34)n2)c(OC)cc1N(C)CCN(C)C | storage stability | human dried blood spot | 2 h, on ice, MQC level |  | recovery | 86.3%
CCC(C)n1ncn(-c2ccc(N3CCN(c4ccc(OCC5COC(Cn6cncn6)(c6ccc(Cl)cc6Cl)O5)cc4)CC3)cc2)c1=O (stereo not drawn) |  | human, plasma | oral, dose not given, day 11 predose, mean |  | trough plasma concentration | 34.9 ng/mL
C[C@H]1CN(C(=O)CC#N)[C@]12CCN(c1ncnc3[nH]ccc13)C2 |  | healthy adults, plasma | oral, 3 mg single dose |  | half-life (geometric mean) | 2.3 h
CCOc1c([C@H](C)n2nc(C)c3c(N)ncnc32)cc(Cl)c(F)c1[C@@H]1CNC(=O)C1 |  | patients, monotherapy | oral, 20 mg once daily, cycle 1 day 15 |  | Cmin | 178 ± 141 nM
CC(C)(C(=O)N1CCOc2c(C#N)cncc2C1)C(F)F | refers to: nervous system disorders | healthy humans, both sexes | oral, 30 mg single dose |  | subjects with TEAE | 33.3%
COc1cc2nccc(Oc3ccc(NC(=O)c4cc5c(n(-c6ccccc6)c4=O)CCCC5=O)nc3)c2cc1OC |  | human, relapsed/refractory AML | oral, 3 mg once daily, CTCAE grading |  | patients, with TEAEs, drug-related grade ≥3 | 10%
C[C@@H](Nc1cc(F)cc(F)c1)c1cc(C(=O)N(C)C)cc2c(=O)cc(N3CCOCC3)oc12 |  | advanced solid tumour patients | oral, 60 mg twice daily, continuous monotherapy |  | dose reduction due to AE | 0%
CCc1nc(C(N)=O)c(Nc2ccc(N3CCC(N4CCN(C)CC4)CC3)c(OC)c2)nc1NC1CCOCC1 |  | Japanese patients, plasma | oral, 120 mg, cycle 0 day -2, single dose, median |  | Cmax | 166 ng/mL
C=CC(=O)NC1CCN(c2ncc3ncnc(Nc4ccc(Oc5ccc6c(c5)ncn6C)c(C)c4)c3n2)CC1 | refers to: total radioactivity | healthy male volunteers, urine and faeces | oral, 60 mg, 240 h, 14C-labelled |  | dose recovered as radioactivity | 89.5%
Cc1cn(C(=O)c2c(-c3c(Cl)cc(Cl)cc3Cl)noc2C(C)(C)F)c2cccc(/C=C/C(=O)O)c12 |  | human patients | 250 mg bid, cycle 1 day 1 |  | AUC(0-8h) | 56800 ng·h/mL
O=C(O)CCC(=O)O.[2H]C([2H])([2H])Oc1cc(C)c2[nH]ccc2c1CN1CC[C@@H](C2CC2)C[C@H]1c1ccc(C(=O)O)cc1 | multiple ascending dose | healthy Chinese subjects | 100 mg twice daily |  | subjects with any TEAE | 62.5%
CCCOc1ccc(NC(=O)CN2CCN(C)CC2)cc1-c1nc(CC)c(CC)c(=O)[nH]1 | least-squares mean difference | healthy Chinese men | 10 mg, with: alcohol 0.5 g/kg | relative to: compound plus placebo | maximal pulse rate increase difference | 2.84 bpm

Repeated from above:
SMILES | test | test system | setting | scale | measurement | value
O=C(Nc1cnccc1Cl)N1CCN(Cc2ccc3c(c2)OC(F)(F)O3)CC1 | refers to: Somnolence | human healthy young men | 75 mg, multiple dose |  | adverse event incidence | 33.3%
CCC(C)n1ncn(-c2ccc(N3CCN(c4ccc(OCC5COC(Cn6cncn6)(c6ccc(Cl)cc6Cl)O5)cc4)CC3)cc2)c1=O (stereo not drawn) |  | human, plasma | oral, dose not given, day 11 predose, mean |  | trough plasma concentration | 34.9 ng/mL
